Experimental data from different studies.
Each numbered part is a random draw from the data of one study; scales do not carry over between parts. Values joined by “and” are separate records of one study, mostly repeats; a detail may differ.

Series 1
Target: Serine/threonine-protein kinase WNK3 (WNK3, Homo sapiens, UniProt Q9BYP7)
UniProt Q9BYP7, sequence (whole entry, looked up): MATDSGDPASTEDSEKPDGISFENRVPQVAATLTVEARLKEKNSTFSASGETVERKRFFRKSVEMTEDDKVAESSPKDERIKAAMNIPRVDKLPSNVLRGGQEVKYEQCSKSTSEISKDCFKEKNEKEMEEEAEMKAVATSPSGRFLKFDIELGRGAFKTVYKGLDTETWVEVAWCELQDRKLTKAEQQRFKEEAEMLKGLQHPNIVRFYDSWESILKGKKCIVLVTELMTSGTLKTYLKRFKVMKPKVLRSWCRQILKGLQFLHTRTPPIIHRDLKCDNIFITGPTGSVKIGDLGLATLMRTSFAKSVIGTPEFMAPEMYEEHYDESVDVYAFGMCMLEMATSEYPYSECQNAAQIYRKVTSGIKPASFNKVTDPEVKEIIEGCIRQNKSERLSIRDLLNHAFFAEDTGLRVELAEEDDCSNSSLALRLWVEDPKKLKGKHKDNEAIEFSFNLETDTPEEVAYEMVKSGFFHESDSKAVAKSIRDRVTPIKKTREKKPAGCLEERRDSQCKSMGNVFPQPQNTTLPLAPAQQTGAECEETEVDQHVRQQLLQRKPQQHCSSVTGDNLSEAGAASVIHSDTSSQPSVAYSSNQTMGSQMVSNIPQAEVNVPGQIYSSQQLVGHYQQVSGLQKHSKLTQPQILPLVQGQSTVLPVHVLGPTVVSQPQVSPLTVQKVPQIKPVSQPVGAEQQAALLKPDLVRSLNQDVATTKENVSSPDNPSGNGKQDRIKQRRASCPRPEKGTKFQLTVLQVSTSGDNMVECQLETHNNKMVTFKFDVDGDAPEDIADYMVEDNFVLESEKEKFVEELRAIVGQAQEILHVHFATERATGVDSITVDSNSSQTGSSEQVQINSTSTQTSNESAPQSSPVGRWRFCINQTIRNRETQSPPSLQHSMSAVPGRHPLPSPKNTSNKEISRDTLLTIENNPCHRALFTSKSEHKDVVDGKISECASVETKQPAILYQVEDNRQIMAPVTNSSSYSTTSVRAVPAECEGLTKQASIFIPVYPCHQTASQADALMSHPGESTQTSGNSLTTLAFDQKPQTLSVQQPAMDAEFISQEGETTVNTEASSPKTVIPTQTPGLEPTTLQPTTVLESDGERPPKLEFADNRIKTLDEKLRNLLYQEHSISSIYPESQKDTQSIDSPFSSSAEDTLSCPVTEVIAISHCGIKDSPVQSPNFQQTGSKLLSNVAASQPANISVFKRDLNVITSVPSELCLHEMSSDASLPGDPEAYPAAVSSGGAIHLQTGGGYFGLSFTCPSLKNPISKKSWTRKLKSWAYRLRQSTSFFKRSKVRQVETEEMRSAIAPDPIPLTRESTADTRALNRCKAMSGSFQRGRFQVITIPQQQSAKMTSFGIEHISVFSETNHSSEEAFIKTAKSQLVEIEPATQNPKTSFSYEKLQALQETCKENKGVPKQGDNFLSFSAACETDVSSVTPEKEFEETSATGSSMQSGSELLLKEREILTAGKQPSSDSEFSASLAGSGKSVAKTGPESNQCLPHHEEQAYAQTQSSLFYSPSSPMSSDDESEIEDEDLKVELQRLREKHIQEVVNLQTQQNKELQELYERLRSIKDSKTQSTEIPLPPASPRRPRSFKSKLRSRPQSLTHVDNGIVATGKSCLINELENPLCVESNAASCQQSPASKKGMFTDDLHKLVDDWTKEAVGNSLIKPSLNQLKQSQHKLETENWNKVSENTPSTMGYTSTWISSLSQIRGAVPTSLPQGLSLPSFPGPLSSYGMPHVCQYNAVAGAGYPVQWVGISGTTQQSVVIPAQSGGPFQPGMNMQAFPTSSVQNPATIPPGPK
Observed: enzyme activity
Mode: inhibitor
Tested at: 0.5 µM
Baseline: control
| SMILES | remaining activity [%] |
| --- | --- |
| N#Cc1c(NC(=O)c2cccc3ccccc23)sc2c1CCCC2 | 99.2 |
| O=C1C(Cl)=C(N2C(=O)CCC2=O)C(=O)c2ccccc21 | 96.4 |
| O=C(Nc1cccc(Nc2nccc(Nc3cccc(C(F)(F)F)c3)n2)c1)C1CC1 | 105 |
| C[C@@H]1CCN(C(=O)CC#N)C[C@@H]1N(C)c1ncnc2[nH]ccc12 | 104 |
| COc1cc2ncnc(Nc3ccc(O)c(Br)c3)c2cc1OC | 95.7 |
| Cc1cn(-c2cc(NC(=O)c3ccc(C)c(Nc4nccc(-c5cccnc5)n4)c3)cc(C(F)(F)F)c2)cn1 | 100 |
| CN([C@@H](Cc1ccc(OS(=O)(=O)c2cccc3cnccc23)cc1)C(=O)N1CCN(c2ccccc2)CC1)S(=O)(=O)c1cccc2cnccc12 | 101 |
| Cc1nc2cc3nc(-c4cccs4)cnc3cc2n1C | 96.9 |
| CCN(CC)CCNC(=O)c1c(C)[nH]c(/C=C2\C(=O)Nc3ccc(F)cc32)c1C | 94.3 |
| c1ccc(-c2cnc(Nc3ccc(OCCN4CCCC4)cc3)s2)cc1 | 99 |
| Cn1nc2c3c(cccc31)C(=O)c1ccccc1-2 | 92 |
| Cc1cc2ncc(-c3ccccc3)nc2cc1C | 103 |
| COc1cc2c(cc1OC)-c1[nH]nc(Nc3cccc(F)c3)c1C2 | 104 |
| N#C/C(=C\c1ccc(O)c(O)c1)C(=O)NCc1ccccc1 | 95 |
| O=C(NC(NC(=S)Nc1ccc(F)c([N+](=O)[O-])c1)C(Cl)(Cl)Cl)C(c1ccccc1)c1ccccc1 (stereo not drawn) | 108 |
| CCOc1nc(NC(=O)Cc2cc(OC)ccc2OC)cc(N)c1C#N | 93.3 |
| O=C1c2ccccc2-c2n[nH]c3cccc1c23 | 89.9 |
| CN(C)C[C@H]1CCn2c(c(C3=C(c4cn(C)c5ccccc45)C(=O)NC3=O)c3ccccc32)C1 | 100 |
| CCN(CC)CCNC(=O)c1c(C)[nH]c(/C=C2\C(=O)Nc3ccc(Cl)cc32)c1C | 86.3 |
| O=c1cc(-c2cccc3c2Sc2ccccc2S3)oc(N2CCOCC2)c1 | 109 |
| COc1cc2ncnc(Nc3cccc(Cl)c3)c2cc1OC | 97.8 |
| Ic1cccc(CSc2nnc(-c3ccncc3)o2)c1 | 101 |
| CCN(CC)C(=O)c1ccc(Nc2nc(OCC3CCCCC3)c3[nH]cnc3n2)cc1 | 80.6 |

Series 2
Host: human
Matrix: microsomes or S9
Tested at: 2 µM
Time: 0.5 h
| SMILES | remaining compound [%] |
| --- | --- |
| CCOc1ccc(/N=c2\cc(C)c(C#N)c3[nH]c4ccccc4n23)cc1 | > 100 |
| CCOc1ccc(-c2[nH]c3[nH]c(=O)[nH]c(=O)c3c2-c2ccc(OC)cc2)cc1OC | 80.6 |
| Cc1c(-c2cc[nH]n2)c2c(C)cccn2c1-c1ccccc1 | 45.2 |
| O=S(=O)(CCNc1ccccc1F)c1ccccc1 | 23.4 |
| CCOc1cc(=O)n2c(c1C(=O)N(CC)Cc1ccncc1)CCCCC2 | 65.8 |
| Oc1cc(CCn2cnc(-c3ccccc3)c2-c2cccc3cccnc23)ncn1 | 54 |
| Oc1cccc(-c2cn(Cc3ccc4sccc4c3)nn2)c1 | 22.4 |
| CCOC(=O)c1c(C)nc2c(c3c(n2Cc2ccc(OC)cc2)CCC3)c1-c1ccc2c3c(ccnc13)CCO2 | 0.393 |

Series 3
Target: Alpha-2B adrenergic receptor (ADRA2B, Homo sapiens, UniProt P18089)
UniProt P18089, sequence (whole entry, looked up): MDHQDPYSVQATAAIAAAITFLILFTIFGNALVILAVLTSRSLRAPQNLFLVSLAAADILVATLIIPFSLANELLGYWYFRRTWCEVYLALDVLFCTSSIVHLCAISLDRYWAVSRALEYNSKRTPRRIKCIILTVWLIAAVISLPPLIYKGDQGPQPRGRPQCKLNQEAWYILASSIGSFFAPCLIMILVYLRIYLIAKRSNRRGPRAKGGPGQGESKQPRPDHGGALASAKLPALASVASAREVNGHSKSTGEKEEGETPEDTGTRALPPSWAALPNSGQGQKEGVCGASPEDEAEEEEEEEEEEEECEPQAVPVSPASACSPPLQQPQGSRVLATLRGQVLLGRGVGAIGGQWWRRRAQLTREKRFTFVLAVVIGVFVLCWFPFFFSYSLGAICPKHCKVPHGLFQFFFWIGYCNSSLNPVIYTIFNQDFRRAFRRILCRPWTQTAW
Observed: ligand displacement
Tested at: 10 µM
| Compound | inhibition [%] |
| --- | --- |
| Cc1ncc(-c2cc(Cl)ccc2F)cc1-n1c(=O)n(CC(N)=O)c2ccccc21 | 17.3 |
| CC1=C(C#N)C(c2ccc3[nH]nc(C)c3c2)C(C#N)=C(C)N1 | 8.04 |
| CN1CCN(c2ccnc(NCCc3ccccc3)n2)CC1 | 98 |
| CN1CCN(c2cnc3c(C4CCN(C(=O)c5ccc(OC(F)(F)F)cc5N)CC4)ncnc3c2)CC1 | -8.47 |
| CCC(F)(F)c1cc(N2CCC(S(C)(=O)=O)CC2)nc2sc(C(N)=O)c(N)c12 | 9.66 |
| CC(=O)N1CCC(c2ccc(C(=O)NC3=NCCN3)cc2C(F)(F)F)CC1 | 1.01 |
| CN1CCN(C(=O)C(C)(C)c2ccc(C(=O)Nc3cn4cc(-c5cc(C(C)(C)C)cc(C(C)(C)C)c5)ccc4n3)cc2)CC1 | 77.6 |
| Nc1cnc(N2CCc3cc(S(=O)(=O)Nc4c(F)cc(Cl)cc4F)cc(N4CCCC4=O)c32)nc1 | 0.99 |
| Nc1nc(NCc2ccccc2)nc(-c2ccccc2CO)n1 | 43.9 |
| O=S(=O)(NC1CCC(c2cc(F)ccc2F)(S(=O)(=O)c2ccc(Cl)cc2)CC1)C(F)(F)F (stereo not drawn) | -2.13 |
| C[C@@H](c1cccc(C#N)c1)n1cc(Cl)cc(C(N)=O)c1=N | 0.7 |
| C[C@H](c1ccnc(Nc2nc3ccc(-c4cc(N(C)C)ncn4)cc3[nH]2)c1)N1CCN(C(=O)CC(F)(F)F)CC1 | 24.7 |
| CC1CCN(c2ccnc(NCc3cn(C)cn3)n2)CC1 | 56.3 |
| NC(=O)c1ccc2nc(-c3ccc(C4(N)CCC4)cc3)c(-c3ccccc3)n2n1 | 28.7 |
| CCC(=NO)C(C)=Cc1ccc(F)c(C)c1 | 33.1 |
| Cn1cc(Cl)c2c(Oc3c(F)cc(Nc4cc(Cl)nc(N)n4)cc3F)ccnc21 | -4.05 |
| CO[C@H]1CC[C@H](CNc2ccc(S(=O)(=O)NC(=O)c3ccc(N4CCN(CC5=C(c6ccc(Cl)cc6)CC(C)(C)CC5)CC4)cc3Oc3cnc4[nH]ccc4c3)cc2[N+](=O)[O-])CC1 | 33 |
| N#CC1(c2ccccn2)CCN(Cc2cc(C(=O)N3CCCC3)c(=O)n3ccccc23)CC1 | -2.99 |
| Nc1nc(NCc2ccccc2)nc(-c2cccc(CO)c2)n1 | 21.8 |
| O=C(Nc1ccc(Oc2ccc(F)cc2)cc1)N1CCc2ncccc2[C@H]1c1ccc(F)cc1 | 49.6 |
| CCc1ccccc1C(=O)Nc1n[nH]c2c(C)c(F)c(C3C(C#N)=C(C)N(C)C(C)=C3C#N)cc12 | 10.6 |
| Cc1ccccc1Oc1cc(-n2c(=O)cc(C(F)(F)F)[nH]c2=O)c2ccccc2c1Cl | -8.63 |
| Cc1noc([C@H]2C[C@@H](c3ccc(C(F)(F)F)cc3)CN(C(=O)N3CCS(=O)(=O)C3)C2)n1 | -2.77 |
| COCCOc1nc(-c2ccc(Cl)nc2)nc2c1CN(C(=O)c1ncn3ccccc13)CC2 | -2.32 |
| CN(C)c1ncnc(-c2ccc3nc(Nc4cc(CN5CCN(C(=O)CC(F)(F)F)CC5)ccn4)[nH]c3c2)c1Cl | -2.22 |

Further values, each from its own experiment
| SMILES | cell line | test | conditions | how to read | quantity | value |
| --- | --- | --- | --- | --- | --- | --- |
| CC[C@@H](C)c1nc2cc(Nc3ccnc4ccc(S(=O)(=O)C(C)C)cc34)ccc2s1.Cl | L929 | caspase activity, Ac-DEVD-pNA absorbance | 50 µM, 2 h | higher = more activity | caspase-3 activity | 0.03 a.u. and 0.032 a.u. and 0.017 a.u. and 0.019 a.u. |
